# Published values from different studies.
# Protocols differ between the studies behind these lines. Several values in a cell are separate wells, animals, samples, runs or records. ± gives the spread as reported.
Compound,test,system,conditions,scale,quantity,value
CC(=O)Oc1ccc2c3c1O[C@H]1[C@@H](OC(C)=O)C=C[C@H]4[C@@H](C2)N(C)CC[C@@]341,LC-MS/MS,"Sprague-Dawley rat, male, whole blood","intraperitoneal, 10 mg/kg, up to 180 min",,AUC(0-last),4 ± 0.667 ng·h/mL
COc1ccc2c(c1)[C@]13CCCC[C@@H]1[C@H](C2)N(C)CC3,,"C57BL/6 mice, plasma","oral, 50 µg/g, 120 min",,plasma concentration,209 ng/mL and 14 ng/mL and 163 ng/mL and 87 ng/mL and 102 ng/mL
Cc1ncc2n1-c1ccc(Cl)cc1C(c1ccccc1F)=NC2,,"healthy human volunteers, plasma","oral, dose not given, CYP3A probe substrate, together with: momelotinib",relative to: compound alone,AUCinf ratio,83.8%
COc1ccc2c(c1)[C@]13CCCC[C@@H]1[C@H](C2)N(C)CC3,,human female,"dose not given, day 22",relative to: day 0,AUC change,-5.6%
CCN(CC)C(=O)[C@@H]1C=C2c3cccc4[nH]cc(c34)C[C@H]2N(C)C1,refers to: abdominal pressure or fullness,healthy volunteers,"dose not given, 12 to 24 h","relative to: placebo, direction not given",List of Complaints score,1
CCCc1cc(O)c2c(c1)OC(C)(C)[C@@H]1CCC(C)=C[C@@H]21,LC-MS/MS,"Scn1a+/− mice, both sexes, plasma","intraperitoneal, 10 mg/kg, after hyperthermia protocol",,plasma concentration,352 ± 28 ng/mL
O=C1c2c(O)c(=O)ccn2N([C@@H]2c3ccccc3SCc3c2ccc(F)c3F)[C@@H]2COCCN12,,hamster cells,,,CC50,5.3 µM
O=C(O)c1cn(Cc2cccc(Cl)c2)c2ccccc12,,"F344 rat, male, serum","oral, 150 mg/kg/day, 2 days, group mean",,alkaline phosphatase,248 U/L
COc1cc2c(Oc3ccc4[nH]c(C)cc4c3F)ccnc2cc1OCC1(N)CC1,,paediatric recurrent refractory sarcoma,12 mg,,grade 1 or 2 influenza-like symptoms,9.1%
CCN(CC)CCOc1ccc2c(c1)C(=O)c1cc(OCCN(CC)CC)ccc1-2,,African green monkey cells,3 (unit not given),,CC50,6.34 µM
CN/C(=N\[N+](=O)[O-])NCc1cnc(Cl)s1,,test soil,"0.12 mg/kg nominal, 0 days",,measured soil concentration,0.07 mg/kg dry soil
CC(C)(C)[C@H](NC(=O)C(F)(F)F)C(=O)N1C[C@H]2[C@@H]([C@H]1C(=O)N[C@H](C#N)C[C@@H]1CCNC1=O)C2(C)C,,mouse liver microsomes,scaled to liver,,intrinsic clearance,370 mL/min/kg
NC(=O)c1nc(F)c[nH]c1=O,,hamster cells,,,CC50,> 400 µM
CCCCCCCCCCC(=O)O[C@H]1CC[C@H]2[C@@H]3CCC4=CC(=O)CC[C@]4(C)[C@H]3CC[C@]12C,,human male serum,"500 ng/mL, NaF 0.00 mg/mL, baseline testosterone 441 ng/dL",,testosterone level,442 ng/dL
CNC(C)Cc1ccc2c(c1)OCO2 (stereo not drawn),rapid equilibrium dialysis,human plasma,250 ng/mL,,fraction unbound,0.793
O=C1c2c(O)c(=O)ccn2N([C@@H]2c3ccccc3SCc3c2ccc(F)c3F)[C@@H]2COCCN12,,"BALB/c mouse, plasma","oral, 0.5 mg/kg baloxavir marboxil every 12 h, 24 h",,plasma concentration,0.438 ng/mL
Cc1nnc2n1-c1ccc(Cl)cc1C(c1ccccc1)=NC2,,"human, female","2 mg, day 0",,AUC,565 ± 46.1 ng·h/mL
C#Cc1ccc2c(c1)C(c1ccccn1)=NCc1c(-c3cnco3)ncn1-2.Cl,shake flask,50 mM phosphate buffer,"24 h, pH 6, 25 °C",,solubility,3090 µg/mL
O=C(O)CCC(CP(=O)(O)O)C(=O)O (stereo not drawn),,"male Wistar rat, brain","ip, 100 mg/kg",,Cmax,~15 µM
NC(=O)c1ncn([C@@H]2O[C@H](CO)[C@@H](O)[C@H]2O)n1,,bovine cells,,,CC50,8 µM
CCCCCCCCCCC(=O)O[C@H]1CC[C@H]2[C@@H]3CCC4=CC(=O)CC[C@]4(C)[C@H]3CC[C@]12C,refers to: testosterone,"human, plasma","oral, 237 mg testosterone undecanoate, average",,AUC(0-24),146 ng·h/mL
